Measured values from different studies.
A part holds a random share of what one study measured. Substitutions count along the parent as printed.

Set 1
Target: ABI1, truncated, D143A, DHFR fusion (Arabidopsis thaliana)
Method: DHFR PCA, deep sequencing
Sample: yeast
Notes: methotrexate growth selection, single substitutions
Together with: (+)-ABA 0.39 µM
Baseline: wild-type fitted maximum
Reading: higher = stronger binding
Parent: PYL1, truncated, DHFR fusion (Arabidopsis thaliana); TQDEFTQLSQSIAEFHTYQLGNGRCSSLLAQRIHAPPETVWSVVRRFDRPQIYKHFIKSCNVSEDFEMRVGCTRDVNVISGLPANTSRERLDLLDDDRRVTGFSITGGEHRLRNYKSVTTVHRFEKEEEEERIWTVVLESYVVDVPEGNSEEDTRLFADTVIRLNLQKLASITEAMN
Variant	relative binding score [%]
V161A	2.71
S63H	23.3
T86P	-2.49
G108Y	-1.85
G102F	-7.75
S42P	-4.77
A13E	52.5
P146Y	-24.5
S171H	45.5
D96C	-9.21
R163S	31.7
S80D	-5.74
F66K	13
R45P	-9.46

Set 2
Target: CEP164, C-terminal peptide (human)
Method: DHFR complementation, deep sequencing
Sample: yeast
Notes: single substitutions, model-inferred values
Baseline: wild type
Reading: higher = weaker binding
Parent: PDZK1, PDZ domain 2 (human); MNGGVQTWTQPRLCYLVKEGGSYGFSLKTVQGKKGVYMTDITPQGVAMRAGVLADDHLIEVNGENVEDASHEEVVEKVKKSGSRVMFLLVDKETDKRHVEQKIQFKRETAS; partner HNRVKVYRF
Variant	binding free energy change [kcal/mol]
N65K	0.417
V75K	2.16
K77P	-0.0558
S81M	1.04
V99P	-0.148
D95P	-0.0581
G32K	0.543
H71T	0.304
N65L	0.293
V46N	0.413
G24C	1.18
K79A	0.626
K77Y	0.153
E73A	0.0434
G24A	1.33
P11M	0.361
K77E	0.217
Y37N	1.02
E67Y	0.201
T39Y	0.388
R84Y	0.263
T109C	-0.202
A69R	-0.142
L13K	-0.0812

Set 3
Target: CCNE2, cyclin fold, Cln2 fusion (human)
Method: yeast growth competition, sequencing
Sample: yeast
Notes: strong parent motif
Baseline: not given
Reading: higher = stronger binding
Parent: E2F1 docking peptide (human); PPVKRRLDFETDH; partner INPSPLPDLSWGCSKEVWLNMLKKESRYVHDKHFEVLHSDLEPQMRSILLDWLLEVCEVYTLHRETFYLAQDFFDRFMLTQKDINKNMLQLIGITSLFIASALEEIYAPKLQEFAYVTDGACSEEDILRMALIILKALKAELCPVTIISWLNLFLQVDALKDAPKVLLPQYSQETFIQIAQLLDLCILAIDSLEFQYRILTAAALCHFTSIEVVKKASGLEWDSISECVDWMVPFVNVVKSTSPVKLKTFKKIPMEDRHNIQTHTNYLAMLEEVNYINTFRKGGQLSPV
Variant	normalised enrichment score
K4V	5.58
D8M	6.1
R5A	0.333
T11A	5.15
E10T	6.33
L7T	0.0496
E10I	5.62
V3D	-0.208
P2K	5.68
V3N	0.0644
D8R	5.5
R6E	1.25
P2M	4.72
K4I	3.87
F9V	0.175
L7P	0.122
D8Q	5.82
R6I	4.37
V3H	3.58
L7S	0.11
D8K	5.71
R5P	-0.235
E10D	5.9
F9Y	1.37
V3Y	3.7

Set 4
Target: RNA binding protein fox-1 homolog 2, RRM domain, GST-SBP tag (RBFOX2, Homo sapiens, UniProt O43251-10, residues 100-194)
Method: RNA Bind-n-Seq
Form: RNA
Sample: in vitro
Concentration: 365 nM
Notes: natural RNA segment, single round, ends assumed
Baseline: no-protein control
Reading: higher = stronger binding
All sequences stand within: GGGAGUUCUACAGUCCGACGAUC … UGGAAUUCUCGGGUGCCAA
Construct (chain): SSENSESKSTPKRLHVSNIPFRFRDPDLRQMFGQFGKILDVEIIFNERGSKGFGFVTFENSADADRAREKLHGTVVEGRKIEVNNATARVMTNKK
Oligonucleotide	RBNS enrichment (R)
GCUCACACCUGAGACAGGAAGGAGGAAGGGGAUCCAAUAGGAAUAUGGGCCCCGGAGGGGAAGUCAUGCACCCCCAAGCCACCACCCCCCAGCCUUCCACGCACAUCUCC	1.03
CUGGAAUAAUAAUGCCAUAUUGUAUUUUGCACACUGCUUUAUUUUCUAGAGGCUCUGGGAGCAAAUUACAUUCAUCACAUUACCUCUGCUCUCUCAAGAUUAAAGUCUUU	0.362
CUGCCCUCUCUGAGCCUCAGUGUUUGGAGGGCCCCAAAGAAUUCCCGUCUUGUGGGGGAGUUUUCUUGCCUAAGAUUUAAUGCAGUUCUCUCUACCCAGUGGGCGCUGCU	0.226
UCUUUGUAACUCACUUGGUAAAAGCAAAUGUCUUGUCUCCUUCAGUGGUUCUUUGAAGCUUAGUGAGGCGGAGGCUGCCAGUGUUGGUACCUGUGGAUUUUCCAAUAGUG	0.332
AAUUCUACUAUGGAUGGAUGUUGUGAGCCCUUGCUUGGAAGCCUUCACCGUCUAGCUUCCCCAGGGUAGGAAAGGUCUCCCACAUUAUGCAAUAAUAAAAUCAGCAUCUG	0.505
GACAUACUGUUAUUUCUUCUGGGAUUUAUUCUUGGCUGUAAACCCAGAACUAAAUUACAUAGAUGAAUACUCCUGCUCCAGUGGCCUGGAUACCAAUCUCUCCUGUCUUU	0.656
AAAGCUGUUUCUUACAGAUGAAGUGCUUUCUUUGAAAGGUGGUUAUUUAGGUUUUAGAUGUUUAAUAGACACAGCACAUUUGCUCUAUUAACUCAGAGGCUCACUACAGA	0.751
AAAAUCUAACUUUGAUUAAUUAAGUACAGGGUUAUUGCUGAUAGCCUCAUAACUCUACCACCAUUAUAAUGGAUCUAUAUAAAAUUGCUUAAUAUCAGUAGCCUAAAUUU	0.408

Further values, each from its own experiment
Molecule	target	test	test system	setting	how to read	endpoint	value
PhoQ, residues 284 288 289 292 302 303 TLASMF	PhoP, residues 12 14 15 18 19 NMSSL (Escherichia coli, UniProt P23836)	Sort-seq, measured: YFP reporter	E. coli	PhoQ-PhoP variant library, together with: 10 µM Mg2+	baseline: high Mg2+ state, higher = stronger signaling	fold induction	2.14

Excerpt of the above (set 1):
Variant	relative binding score [%]
V161A	2.71
S63H	23.3
T86P	-2.49
G108Y	-1.85
G102F	-7.75
S42P	-4.77
A13E	52.5
P146Y	-24.5
S171H	45.5
D96C	-9.21
R163S	31.7
S80D	-5.74
